Measurements collected from several papers.
Values joined by “and” are separate records of one study, mostly repeats; a detail may differ.
Target: Serine/threonine-protein kinase pim-1 (PIM1, Homo sapiens, UniProt P11309)

| Compound | test | conditions | scale | quantity | value |
| --- | --- | --- | --- | --- | --- |
| CN1CC[C@@H](COc2cnc(C#N)cc2-c2ccn3nc(NC(=O)C4CC4)cc3c2)C1 | enzyme activity, inhibitor | 1 µM | – | inhibition | 13% |
| COc1c(Cl)cccc1Nc1c(-c2ccncc2C#C[C@@]2(C)CCCN2C(=O)/C=C/CN(C)C)[nH]c2c1C(=O)NCC2 | binding, competition with immobilised ligand | 3 µM | – | remaining binding | 92% |
| C=CC(=O)N1Cc2nc(-c3cc(-c4cc(Cl)cnc4Cl)c(F)cc3F)n(-c3ccncn3)c2C1 | cell-free assay, inhibitor | 1 µM | – | inhibition | 4.2% |
| CNC(=O)C[C@H](Cc1ccc(C#N)cc1)NC(=O)c1cc(-c2ccc(CN[C@H](C)c3ccc(C)cc3)o2)ccc1Cl | enzyme activity, inhibitor | 1 µM | – | activity vs control | 100% |
| C=CC(=O)Nc1cccc(-c2cnc3[nH]cc(C(=O)NC(C)(C)C)c3n2)c1 | kinase activity | 0.1 µM | – | inhibition | 1% and 2% |
| COc1ccc(NC(=O)Nc2ccc3c(c2)C(=O)N(C(C)CO)CC(C)C(CN(C)Cc2ccc4c(c2)OCO4)O3)cc1 (centres unmarked) | binding, competition with immobilised ligand | 10 µM | – | remaining binding | 87% |
| COc1ccc(C(=O)/C=C/c2ccccc2-c2c[nH]c3ccc(C#N)cc23)c(O)c1 | enzyme activity, inhibitor | 20 µM | – | inhibition | 56% |
| C[C@H]1CN(C(=O)c2cn(-c3ccnc(N)n3)c3cc(C#CC4(O)CCCCC4)ccc23)CCN1 | enzyme activity, inhibitor, FRET | 1 µM | – | inhibition | 0% |
| CCN1CCN(Cc2ccc(C(=O)Nc3ccc(C)c(NCc4cnc5[nH]ccc5c4OC)c3)cc2C(F)(F)F)CC1 | binding, competition with immobilised ligand | 1 µM | – | remaining binding | 100% |
| CNC1C[S+]2CC[S+]3CC[S+](C1)[Ru-4]321([N]=C=S)[n]2c3ccc(OC)cc3c3c4c(c5cc(F)c[n+]1c5c32)C(=O)NC4=O (centres unmarked) | KinomeScan | 0.1 µM | baseline: untreated | remaining binding | 0.4% |
| Cc1cccc(-c2ccc3nc(NC(=O)C4CCCO4)nn3c2)c1 (centres unmarked) | enzyme activity, Dundee kinase panel | 10 µM | – | remaining activity | 90% |
| NC(=O)C[C@H]1CCc2sc3ncnc(O[C@H]4CC[C@H](N5CCOCC5)CC4)c3c21 | enzyme activity, inhibitor | 10 µM | – | inhibition | 5% |
| Fc1cncc(-c2ccc3[nH]c4ncnc(N[C@H]5CC[C@H](N6CCOCC6)CC5)c4c3c2)c1 | enzyme activity, radiometric | 1 µM, together with: ATP | – | inhibition | 98% |
| CCn1cc(C(=O)O)c(=O)c2c(N)c(F)c(NC3CCCCC3)cc21 | kinase activity | 0.1 µM, together with: ATP at Km | – | inhibition | 23.3% |
| COc1cc(Nc2nc(C)cc(-c3cnn4nc(OC)ccc34)n2)cc(C(F)(F)F)c1 | inhibitor | 1 µM | baseline: control | remaining activity | 100% |
| Cc1ccc(-c2c(/C=C(\C#N)C(=O)NC(C)C)n(CCCO)c3ncnc(N)c23)cc1 | cell-free assay, competition with immobilised ligand | 1 µM | – | remaining binding | 100% |
| CN1CCN(Cc2ccc(-c3ccc(CO[C@H]4CCC[C@@H]4NC(=O)c4cc(-c5cnn(C)c5)cnc4N)cc3)cc2)CC1 | enzyme activity, inhibitor | 0.1 µM | – | inhibition | 5% |
| COc1cncc(-c2ccc3[nH]c4ncnc(N[C@H]5CC[C@H](N6CCOCC6)CC5)c4c3c2)c1 | enzyme activity, inhibitor, radiometric | 1 µM | – | inhibition | 98% |
| C=CC(=O)N1CCc2ccc(-n3c(=O)ccc4cnc5ccc(-c6cnn(C)c6)cc5c43)cc21 | KINOMEscan | 1 µM | baseline: DMSO control | remaining binding | 100% |
| Nc1ncc(-c2cc(-c3cnn(CC(F)(F)F)c3)ncc2F)nc1C(=O)NC1CNCC(F)C1 (centres unmarked) | enzyme activity | 1 µM | baseline: DMSO control | remaining activity | 37% |
| Cc1cnc2nc1Nc1cccc(c1)COC/C=C/COCc1cc(ccc1OCCN1CCOCC1)N2 | binding | 0.1 µM | – | remaining binding | 100% |
| CN1CCN(Cc2ccc(NC(=O)c3cccc(C#Cc4cnc(N)c5ncccc45)c3)cc2C(F)(F)F)CC1 | cell-free assay, competition with immobilised ligand | 0.5 µM | – | remaining binding | 94% |
| Cc1cccc(-c2ccc3nc(NC(=O)C4CCCCC4)nn3c2)c1 | enzyme activity, Dundee kinase panel | 10 µM | – | remaining activity | 99% |
| Cc1cccc(O[C@H]2CCC[C@@H](C(C)CNCc3ccncc3)C2)c1 (relative stereo) | enzyme activity, inhibitor | 1 µM | – | inhibition | 0% |
| O=C(Cc1ccc(OCc2ccccc2)cc1)NC1(C(=O)O)CCN(C(=O)c2ccc(-c3cccc(Cl)c3)cc2)CC1 | enzyme activity, inhibitor | 10 µM | – | activity vs control | 101% |
| COc1c(OCCCN2CCOCC2)ccc2c1N=C(NC(=O)c1cnc(N)nc1)N1CCN=C21 | kinase activity, inhibitor | 1 µM | baseline: untreated control | remaining activity | 114% |

Some of these lines once more:
| Compound | test | conditions | scale | quantity | value |
| --- | --- | --- | --- | --- | --- |
| CN1CCN(Cc2ccc(-c3ccc(CO[C@H]4CCC[C@@H]4NC(=O)c4cc(-c5cnn(C)c5)cnc4N)cc3)cc2)CC1 | enzyme activity, inhibitor | 0.1 µM | – | inhibition | 5% |
| O=C(Cc1ccc(OCc2ccccc2)cc1)NC1(C(=O)O)CCN(C(=O)c2ccc(-c3cccc(Cl)c3)cc2)CC1 | enzyme activity, inhibitor | 10 µM | – | activity vs control | 101% |
| COc1cc(Nc2nc(C)cc(-c3cnn4nc(OC)ccc34)n2)cc(C(F)(F)F)c1 | inhibitor | 1 µM | baseline: control | remaining activity | 100% |
